# Measurements gathered from unrelated publications.
# Numbered parts are unrelated; each lists some results of a single study. Substitutions count along the parent as printed.

# Sample 1
# Target: Prothrombin, mature alpha-thrombin (F2, Homo sapiens, UniProt P00734)
# Method: aptamer microarray, sandwich
# Molecule type: DNA with 2'F-ANA
# Sample: in vitro
# Concentration: 200 nM
# Setting: whole 15-mer aptamer, many near background
# Together with: Cy3 exosite-II aptamer, 400 nM
# Direction: higher = stronger binding
# Strand: GGTTGGTGTGGTTGG
Modification,mean fluorescence intensity
2'F-ANA at 2 3 4 5 6 10 14,50.6 a.u.
2'F-ANA at 2 4 5 6 7 9 10 12 13 14,46.7 a.u.
2'F-ANA at 1 2 4 6 8 9 10 12 13 15,52.1 a.u.
2'F-ANA at 2 4 10 11 13 14 15,85.7 a.u.
2'F-ANA at 1 3 4 6 7 10 11 12 14,52.2 a.u.
2'F-ANA at 1 3 6 8 9 13,218 a.u.
2'F-ANA at 2 3 5 7 8 10 12,62.9 a.u.
2'F-ANA at 2 3 4 10 11 12 13,279 a.u.
2'F-ANA at 1 2 6 10 13,50.2 a.u.
2'F-ANA at 3 5 6 7 8 11,113 a.u.
2'F-ANA at 1 2 3 6 8 9 10 11 15,61.3 a.u.
2'F-ANA at 2 4 5 6 9 10 11 14 15,48.5 a.u.
2'F-ANA at 1 4 5 6 8 9 12,132 a.u.
2'F-ANA at 3 4 6 9 12 13 15,500 a.u.
2'F-ANA at 2 4 5 6 7 9 10 11 13 15,61.1 a.u.
2'F-ANA at 1 3 5 6 7 8 10,301 a.u.
2'F-ANA at 2 5 7 9,77.4 a.u.
2'F-ANA at 1 14 15,59.2 a.u.
2'F-ANA at 1 5 6 7 9 10 11 12 13 14,48.3 a.u.
2'F-ANA at 1 2 4 5 8 10 11 14 15,54.5 a.u.
2'F-ANA at 1 6 11 13 14,52.6 a.u.
2'F-ANA at 1 3 4 5 7 8 13 14 15,46.7 a.u.
2'F-ANA at 3 5 6 10,65.9 a.u.
2'F-ANA at 1 3 4 6 7 9 12 13 14,65.4 a.u.
2'F-ANA at 1 2 5 6 7 8 9 11 12 14 15,52.3 a.u.

# Sample 2
# Target: Histone acetyltransferase KAT6A, both winged helices, GST fusion (KAT6A, Homo sapiens, UniProt Q92794, residues 1-181)
# Method: protein binding microarray
# Molecule type: double-stranded DNA, one strand shown
# Sample: in vitro
# Concentration: not given
# Setting: 8-mer, flanks averaged, mean of 2 arrays, mostly near background
# Reference: not given
# Direction: higher = stronger binding
# Target sequence (chain): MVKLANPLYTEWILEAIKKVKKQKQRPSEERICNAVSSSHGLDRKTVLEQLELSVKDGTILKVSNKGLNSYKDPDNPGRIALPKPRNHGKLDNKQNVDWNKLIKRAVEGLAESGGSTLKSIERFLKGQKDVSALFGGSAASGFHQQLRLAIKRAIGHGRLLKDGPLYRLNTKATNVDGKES
Strand,E-score
ACTTACCA,-0.141
GAGTACGC,0.0703
GAATAACC,-0.0102
TTAGATAA,-0.0248
CGCACACC,0.176
GTAGAATA,-0.108
ACCCCATC,-0.134
AACGATAG,-0.0281
GTCATGGA,-0.101
AACATCCG,0.204
GTGCACGA,-0.0334
GGAATTAA,-0.052
AGCCCGAT,-0.0293
AGCTAGCG,0.147
AATCGTGA,-0.0451
ACTATGCT,-0.155
AACGGGTC,0.236
CTAAGTGC,-0.144
GCCCCTAA,-0.166
CCTCTCAG,-0.318
AGCTGTTG,-0.0893
AAGCAAGG,-0.234
GTGCGCTA,0.162

# Sample 3
# Target: ABI1, truncated, D143A, DHFR fusion (Arabidopsis thaliana)
# Method: DHFR PCA, deep sequencing
# Sample: yeast
# Setting: methotrexate growth selection, single substitutions
# Together with: (+)-ABA 0.032 µM
# Reference: wild-type fitted maximum
# Direction: higher = stronger binding
# Starting sequence: PYL1, truncated, DHFR fusion (Arabidopsis thaliana); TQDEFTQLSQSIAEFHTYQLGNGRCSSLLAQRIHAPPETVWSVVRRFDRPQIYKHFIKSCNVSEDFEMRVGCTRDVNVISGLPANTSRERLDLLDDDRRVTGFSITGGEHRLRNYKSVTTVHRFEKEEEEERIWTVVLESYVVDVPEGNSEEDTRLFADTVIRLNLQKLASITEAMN
Substitution,relative binding score [%]
G23H,13.7
L94M,5.12
P37F,-2.75
Q10E,52.3
C60I,-0.369
D75F,22.4
T73S,2.76
S26P,0.199
F47W,-2.94
S27W,4.64
V143A,3.42
V145M,-11.2
S80F,57.7
F66M,-2.39
T160V,-3.19
F124L,36.4
T154E,-4.71
E129R,20.5
G148T,-2.54
Q7S,27.1
P83S,26.1
T173I,1.7

# Sample 4
# Target: RING finger protein unkempt homolog, zinc fingers 1-6, GST-SBP tag (UNK, Homo sapiens, UniProt Q9C0B0, residues 30-357)
# Method: RNA Bind-n-Seq
# Molecule type: RNA
# Sample: in vitro
# Concentration: not given
# Setting: RNA with constant flanks, ends assumed
# Reference: input RNA pool
# Direction: higher = stronger binding
# Shared flanks, not repeated: GGGAGUUCUACAGUCCGACGAUC … CAACAGAGGAUUGAGCAUCA
# Target sequence (chain): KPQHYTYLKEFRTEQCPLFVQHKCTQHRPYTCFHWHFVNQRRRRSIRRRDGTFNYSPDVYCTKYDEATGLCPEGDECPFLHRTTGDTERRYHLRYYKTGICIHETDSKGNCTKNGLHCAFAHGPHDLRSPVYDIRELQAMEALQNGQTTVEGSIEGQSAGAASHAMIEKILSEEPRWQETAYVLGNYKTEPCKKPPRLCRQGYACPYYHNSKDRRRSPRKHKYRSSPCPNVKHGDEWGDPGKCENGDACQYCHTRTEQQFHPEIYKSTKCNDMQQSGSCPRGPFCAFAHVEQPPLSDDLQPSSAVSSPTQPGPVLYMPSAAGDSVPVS
Strand,bound/input enrichment [ratio]
CUGGGCUGCUCGGGUUAGAUCGUCAGGAAAAGCCUAAAGAUUAGACUGUAAGAAAAGAAAACCGAAGCCAUGUUUCGAAGACCUGUAUUACAGGUACUUCGUCAGUUUGUAAGACAUGAG,0.497
UCAACCAAAGAUGUACAUAAAGGAGAGUCUGGAAGCCAGGAAGCGGCAGUAAACAGUUUCCGCUCUUCCGUUGGUCACCCUGUGACCUCGACUGUUAUUUCACAGCCUAAAAGCUUUGAC,0.111
CAGUUUGGAGCCACAGACCUGGAUGUGGCCAACUUCUACGUUUCCCAACUGCAGACUCCCACCGGUGUACAGGCCGAGGCCUUGCUUCGAUGUAGUGACAUAAUUUCCUAUUCUUUCAAG,0.453
CGAUGCCUAAGAUGGGGAGGAGGUUAUGAAGGACAGAAUCUGGCAAAGAUCCUCAAGGAUUCCGAGAUGAGUAAAGUGGUACAUAUGGAUCGAUGGUCUGUGGAGGUGAUACCUCAACAA,0.215
CCAAAGAAGAUACAGUAUGAAAGUAGAGGUGCACUCUCUAUAAUACAAUCUACUGUACAGUCCGCAAGCGAAGUGUUAAAUGGAGAAGAUGCUUGUUUUUAUUAAACAUUUGGAGAUUUA,0.16
UCCAGCCGGUGUGAAGAGGAGACCCCUUCCCUCUUGUGGGGUUUGGAUCCUGUGUUUCCCGCCUUUGCAAAACUCUACAUCAGGGAUAUCCUGGACAUGAAGGAGUCCCGCCAGGUGCCA,0.0804
UCAACUCUAGCCAAGGAGGCAGAAAGGAAUUCUUAUCGCCUAAGCUGGGGCACUGAGAACUCCGACAACGUGGCUCUUUCUUCUAGUCCUAUUCAUUCAGGUUUCCUGGUUAGUUUUAUG,2.28
GCACCAAAAUAUCAGAUAGGAGAAAGAAUUCGAGUCAUCUUGGACAUGGAAGAUAAGACUUCCGCUUUUGAACGUGGAUAUGAGUUCCUGGGGGUUGCUUUUAGAGGACUUCCAAAGGUC,0.687
AUAUCUUCAGAAGAGGGAGAGACAGAAGCCAAUAACCCCAAGAAGUUGUCUGAUUUUGGAAUCCGAAACGGCAGCCGGCUUCAAGCAGACGACUUCCUCCAGGACUAUACUUUGCUGAUC,0.215
GAAUACCAUCUGGCUGAUCUUGCAUCCUUAAUGGACAAAGCGUAUGAAAGAAAAUUGCCUGUCCGUUCUUUAUCAAUAUCACGGUUUGUGGACAACAUUGCAUCCCGAGAAGAUCUAGAU,0.158
AAAAACUUGGCCCUUAUGACACACAUCACAACUGAUAUGGAAGAUGGACCCAUUGUUAAAUCCGCCAGUAACUUGGGAGUAGAAGAUGUGAAUUUAUUAUGUGGGGAAGAGCUCUCUUAC,0.18

# Sample 5
# Target: CCNE1, cyclin fold, Cln2 fusion (human)
# Method: yeast growth competition, sequencing
# Sample: yeast
# Setting: strong parent motif
# Reference: not given
# Direction: higher = stronger binding
# Starting sequence: NPAT docking peptide (human); PCHRRVLCFDSTT; partner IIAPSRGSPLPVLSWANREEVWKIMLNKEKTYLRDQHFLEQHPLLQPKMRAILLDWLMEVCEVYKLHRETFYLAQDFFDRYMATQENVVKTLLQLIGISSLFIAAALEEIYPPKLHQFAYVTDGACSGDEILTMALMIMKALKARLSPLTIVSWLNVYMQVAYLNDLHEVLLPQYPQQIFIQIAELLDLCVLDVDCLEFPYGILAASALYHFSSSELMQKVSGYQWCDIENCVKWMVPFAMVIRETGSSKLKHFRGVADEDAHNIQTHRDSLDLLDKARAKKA
Substitution,normalised enrichment score
PCHRKVLCFDSTT [R5K],0.892
PCHRAVACFDSTT [R5A L7A],-0.101
PCHRRVLCADSTT [F9A],0.331
PCARRVLCFDSTT [H3A],3.45
PCHRRVACFDSTT [L7A],-0.206
PCHRRVLCFDSAT [T12A],1.75
PCHRRVLCFASTT [D10A],1.24
PCHRKVLCLDSTT [R5K F9L],0.382
PCHRRVLAFDSTT [C8A],0.919
PCHRRVLCFDATT [S11A],1.01

# Mixed results
Molecule,target,test,test system,setting,scale,endpoint,value
"PhoQ, residues 284 288 289 292 302 303 SACGEM","PhoP, residues 12 14 15 18 19 HLGGL (Escherichia coli, UniProt P23836)","Sort-seq, refers to: YFP reporter",E. coli,"PhoQ-PhoP variant library, together with: 10 µM Mg2+","reference: high Mg2+ state, higher = stronger signaling",fold induction,4.62

# Some of these lines once more (sample 5):
Substitution,normalised enrichment score
PCARRVLCFDSTT [H3A],3.45
PCHRRVACFDSTT [L7A],-0.206
PCHRRVLCFDSAT [T12A],1.75
PCHRRVLCFASTT [D10A],1.24
PCHRKVLCLDSTT [R5K F9L],0.382
PCHRRVLAFDSTT [C8A],0.919
PCHRRVLCFDATT [S11A],1.01
